# Assay results pooled from the literature.
# Numbered parts are unrelated; each lists some results of a single study.

# Sample 1
# Target: RING finger protein unkempt homolog, zinc fingers 1-6, SBP tag (UNK, Homo sapiens, UniProt Q9C0B0, residues 30-357)
# UniProt Q9C0B0, sequence (30-357, looked up): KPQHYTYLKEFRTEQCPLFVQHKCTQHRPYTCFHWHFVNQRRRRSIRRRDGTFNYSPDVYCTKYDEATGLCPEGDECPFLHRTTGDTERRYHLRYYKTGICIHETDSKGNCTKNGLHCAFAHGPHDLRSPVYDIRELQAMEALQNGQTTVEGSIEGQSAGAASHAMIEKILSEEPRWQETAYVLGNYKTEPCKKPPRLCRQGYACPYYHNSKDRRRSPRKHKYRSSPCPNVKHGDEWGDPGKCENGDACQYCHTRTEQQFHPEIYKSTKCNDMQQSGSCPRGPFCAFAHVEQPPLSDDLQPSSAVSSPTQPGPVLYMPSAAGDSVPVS
# Method: RNA Bind-n-Seq
# Form: RNA
# Matrix: in vitro
# Tested at: 100 nM
# Notes: RNA with constant flanks, vertebrate orthologous sites, ends assumed
# Baseline: input RNA pool
# Reading: higher = stronger binding
# All sequences stand within: GGGAGUUCUACAGUCCGACGAUC … CAACAGAGGAUUGAGCAUCA
Strand,bound/input enrichment
AAUAGUUUUAAGCUUGUUUGCACAGUUUUUCCCUUCCAUUGGAGAUGGAAUUCAUUGCCUUAGGUCUUUUUAAUAGUGUAUUGUUAUCGUUGGGCUGGCUCUAUGCUUGAAAACCAGUUU,1.93 ratio
UAAAGUAGACUUUAUUUUAGGGAUGGAGCCGGGGAGUGGUGUGGAUGGGAGGCUGGUAUCAACAUCACUAAGUAUUCCGAAGGUCUUCUUGCUUUGUUUUUCCAUUUUAAUUGAUACACU,1.28 ratio
AGAAAACUUUAGCCAGGAGUCUGAAAGUAGACAUACUGGUUCCUGGUUGUCUUCCUCUCUAAGAAAUAGAUGCACACCUUUAUUUUCAAGGAGACGUCGAGAAGGAAGAGAUGAAUCUAC,0.239 ratio
UCCUGAACGUCUAGCUUUCACAUGAUGGCUGUUCUAGAUACUGGUUUUUCUUUUGAAAACUCCUCCGGUUCCCAUCUUCUCCUUCCUGGUUCCUAAGGUUUGACUCAUGGAUUUUACUCG,0.645 ratio
CAUAGAAUAUUGGAUGCAGCAUAUAAAUUAUCCAAGGCAGUGACUUCAGCUUUAUAGAGAUUGUUAGUUUUAAAGGCACCUAAUUUUAUUUAAACUUCUAGAUUGGAUUGUUUGCUAUUG,1.51 ratio
GCUCCGGCCCGGGGCAGGGCUGUGGAGCACACUUUGCGCGCUCCUGCAGUUUUCUUUGUUCUAGGGGUGGGGGUUGUGGCGCACACCGACGUGGAGGCGUAGCUUUAGUGGUUCAUUAUG,0.833 ratio
UGAUGGCCGCUUCUCCCCUGCCUCAGUGAGGUAAAGUCUCCCUUGGCAUUUGGUUGGUACCAGAGCCAGCCAUACCUAAUACAGGUUUCCACAUUUCUUUCACACUCAUAGUCAUCUUCA,0.644 ratio
GCUUUAGAAAUGAGCAGAUAGGGCAGUUAGGUGGGUCCCCGCCUCAAGAAAAACCCUAAACCGAUUCCUUAACCAUCUGACUAGAGACUGGAGGUUAGCAUUUCCGUUUGUUUUUAUUUU,0.459 ratio
CAGCUGAUUCACUGAUUGGGAGAGCUGCACAUAUAGCUGUUCUUGACUCAGAAAUAUUUUUAGAAAAAUUCUUUCUGGUUGCUGCCCUCAAAUAUUUCCAAUAGGAUAAAACCAUUCUUA,0.663 ratio
AUUUUAAAAGUGUUUAGUUAUAUUUAAUGAUUUUAUUCCUGAGUUCCUAUUUCAUUAAAGUAGCUUCCAUUUCUAUUUAUCGCAGUUAUGAAUAAGUAGAAGGUUUGUGCCAGUAGACAC,0.817 ratio
CAUCUCUCAUUUUAUAUGUCCAAAAAUGGCUUUGAAUUUUAAGCAAUUACUAGUUUUAAUUAGCUCUGCCCUCAUGAAGUAUUAUUAUAAUUCACCAUAAACAGCUAUCUGUCUGAAUUA,1.17 ratio

# Sample 2
# Target: Myc proto-oncogene protein, bHLH-zipper, MAX partner unstated (MYC, Homo sapiens, UniProt P01106, residues 368-449)
# UniProt P01106, sequence (368-449, looked up): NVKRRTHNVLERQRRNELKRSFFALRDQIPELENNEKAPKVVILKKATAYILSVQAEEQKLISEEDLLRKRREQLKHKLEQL
# Method: protein-binding microarray
# Form: double-stranded DNA, one strand shown
# Matrix: in vitro
# Tested at: not given
# Notes: k-mer, scored over probes, only values ≥0.25
# Reading: higher = stronger binding
Strand,E-score
CGTGTAAC,0.281
GAGCACGC,0.438
ACGTGGCG,0.453
TCCACGCA,0.373
GCCACGAC,0.292
CACGCGAG,0.41
ACCACGAT,0.373
ACATGCTA,0.359
CGCACACG,0.398
CATGTGCC,0.475
CGTGCGAA,0.334
CACGAGTA,0.357
CGTGGAAA,0.35
CTCGCACA,0.27
ACATGCAC,0.389
CATGTCCC,0.277
CCCGCCTC,0.337
CCCCTCCC,0.347
CAGACCCC,0.256
AGCACGCC,0.385
ATCATGGC,0.299

# Sample 3
# Target: Histone acetyltransferase KAT6A, winged helix 1, GST fusion (KAT6A, Homo sapiens, UniProt Q92794, residues 1-85)
# Method: protein binding microarray
# Form: double-stranded DNA, one strand shown
# Matrix: in vitro
# Tested at: not given
# Notes: 8-mer, flanks averaged, mean of 2 arrays, mostly near background
# Baseline: not given
# Reading: higher = stronger binding
# Residues (chain): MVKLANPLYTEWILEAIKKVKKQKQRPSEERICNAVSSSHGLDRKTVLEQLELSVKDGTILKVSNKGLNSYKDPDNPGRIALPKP
Strand,E-score
AGCCCCCT,-0.0918
CTCAATAC,-0.194
CTCCGGAA,0.0319
CGTACTAC,0.206
ACGTACCA,-0.179
CAGGGCGC,0.299
ACCCCAAC,-0.255
GTTGGACA,-0.0806
ACTGTGTG,-0.183
AGCCCTGA,-0.114
AGAGGCCT,-0.183
GCCCGAAC,0.0573
GGCTATGA,0.01
TGAATAAA,0.00268
AATCGATA,-0.0929

# Sample 4
# Cell line: yeast with cyclin D2-Cln2 chimera
# Read-out: cell growth
# Action: binder
# Method: competitive growth deep sequencing
# Form: peptide
# Tested at: concentration not given
# Notes: peptide tiling library
# Reading: direction not given
Molecule,growth enrichment score
SNFFDVIKQLFSDEKN,-2.45
ASVLSKPIFCFVKD,-0.656
GTPKRCLDLSNLSSGE,-1.18
PKRAKRKLYTSEISSP,-0.198
HPESPPRKRLKSKGSD,0.43
DWDTVERQEEEAPSWD,-0.154
IFNKPECGRVQRAIFQ,-0.545
